# Results collected from several papers.
# Protocols differ between the studies behind these lines. “And” joins repeats or separate records; there may be more than shown. ± gives the spread as reported.
# Organism: Salmonella typhimurium
SMILES,test,system,setting,scale,measurement,value
OC(CCN1CC=C(c2ccc(F)cc2)CC1)c1ccc(F)c2ccccc12 (centres unmarked),SOS/umu test,TA1535/pSK1002,"0.031 mg/mL, 4 h, with S9, full range",,survival,74.5%
Nc1c2ccccc2nc2ccccc12,plate incorporation Ames test,TA1537,100 µg per plate,,revertant colonies per plate,1540
O=[N+]([O-])c1ccc2c(c1)Cc1ccccc1-2,,TA98,"1 µg/plate, together with: without S9",relative to: vehicle control,revertant fold increase,6.5
CNC(=O)c1c(N(C)N=O)ncn1C,plate incorporation,"TA1535, water","5000 µg/plate, without S9",,revertant colonies per plate,30.7 ± 7
N#C[C@@]1(n2ccc(N)nc2=O)O[C@H](CO)[C@@H](O)[C@H]1O,,TA1537,"100 µM, without S9",,viability,93%
O=[N+]([O-])c1ccc(NC2CCNCC2)c(C(F)(F)F)c1,"genotoxicity, SOS/umu test",TA1535/pSK1002,"0.5 mg/mL, 4 h, without S9, full range",,induction factor,0.7
CC(C)N(N=O)C(C)C,"mutagenicity, Ames plate incorporation",TA1535,"5000 µg/plate, without S9, methanol",,revertant colonies per plate,30.7 ± 6
O=C(O)CCCOc1ccc(F)cc1-c1cc(-c2ccccc2C(F)(F)F)n(-c2ccccc2)n1,Ames test,TA1537,"concentration not given, without S9 metabolic activation",,growth-inhibiting concentration,≥ 625 µg/plate
CN(C)c1ccc(N=NS(=O)(=O)[O-])cc1.[Na+],Ames test,TA98,"10 µg/well, without S9",,revertant colonies,560 colonies/well and 544 colonies/well and 656 colonies/well
COCCN(CCOC)N=O,"mutagenicity, Ames plate incorporation",TA98,"5000 µg/plate, 3 d, without S9, methanol",,revertant colonies per plate,20 ± 6
Nc1ccc2cc3ccccc3cc2c1,"Ames test, initial",TA1535,"1.0 µg/plate, together with: rat liver S9",relative to: solvent control,revertant ratio,7
COc1cccc(-c2n[nH]c(SCc3ccccn3)n2)c1OC,"Ames test, preincubation",TA1535,"0.25 mg/plate, with rat liver S9",,revertant colonies per plate,17
Nc1ncnc2c1c(Oc1cc(C(F)(F)F)ccn1)nn2C1CC1,mini Ames test,TA98 and TA100,"concentration not given, with and without S9, negative",,mutagenicity,negative
COS(C)(=O)=O,mini-Ames test,TA102,"1.0 µL/well, without S9",,revertants per well,> 600
[N-]=[N+]=[N-].[Na+],Ames test,TA1535,"0.3 µg/well, without S9",,revertant colonies,240 colonies/well and 224 colonies/well and 272 colonies/well
O=[N+]([O-])c1ccc(N2CCN(CCC(O)c3ccc(F)cc3)CC2)c(C(F)(F)F)c1 (centres unmarked),"genotoxicity, SOS/umu test",TA1535/pSK1002,"0.016 mg/mL, 4 h, with S9, lower range",,induction factor,0.8
CC(=O)N1CCC(C(=O)N2CCN3C(=O)c4cc(-c5ccccc5)ccc4NC(=O)C3C2)CC1 (centres unmarked),,TA98,"1581 µg/plate, together with: rat liver S9",relative to: vehicle,fold increase in revertants,0.9
CN(CC(C)(C)C)N=O,"mutagenicity, Ames plate incorporation",TA100,"1500 µg/plate, without S9, methanol",,revertant colonies per plate,196 ± 13
O=[N+]([O-])c1ccc2c(c1)Cc1ccccc1-2,"Ames test, confirmatory",TA98,1.0 µg/plate,relative to: solvent control,revertant ratio,6.9
Fc1ccc(C2=CCNCC2)cc1,"genotoxicity, SOS/umu test",TA1535/pSK1002,"0.125 mg/mL, 4 h, without S9, full range",,induction factor,0.8
CN(N=O)c1ccc(F)cc1,"mutagenicity, Ames plate incorporation",TA1537,"5000 µg/plate, 3 d, without S9, methanol",,revertant colonies per plate,7.7 ± 2
Nc1ccc2cc3ccccc3cc2c1,,TA1537,"5 µg/plate, together with: rat liver S9",,mean revertants per plate,356 revertants/plate
O=[N+]([O-])c1ccc(N2CCC(NCCC(O)c3ccc(F)c4ccccc34)CC2)c(C(F)(F)F)c1 (centres unmarked),"genotoxicity, SOS/umu test",TA1535/pSK1002,"0.016 mg/mL, 4 h, with S9, full range",,induction factor,1
CC(C)(C)c1sc2ncnc(Oc3c(F)cccc3OC(F)(F)F)c2c1-c1ccc(Cl)cc1,mini-Ames,"TA98, TA100","concentration not given, with and without S9",,mutagenicity,negative
O=NN1CCN(C2CCCC2)CC1,"mutagenicity, Ames plate incorporation",TA98,"2500 µg/plate, 3 d, without S9, methanol",,revertant colonies per plate,31 ± 3
Cc1cc(C(=O)NC(C)(C)COc2cccc3c2C(N)=NS(=O)(=O)N3)cc(C)n1,"Ames test, initial",TA1535,15.0 µg/plate,relative to: solvent control,revertant ratio,1.1

# Excerpt of the above:
SMILES,test,system,setting,scale,measurement,value
CC(C)(C)c1sc2ncnc(Oc3c(F)cccc3OC(F)(F)F)c2c1-c1ccc(Cl)cc1,mini-Ames,"TA98, TA100","concentration not given, with and without S9",,mutagenicity,negative
N#C[C@@]1(n2ccc(N)nc2=O)O[C@H](CO)[C@@H](O)[C@H]1O,,TA1537,"100 µM, without S9",,viability,93%
Nc1ncnc2c1c(Oc1cc(C(F)(F)F)ccn1)nn2C1CC1,mini Ames test,TA98 and TA100,"concentration not given, with and without S9, negative",,mutagenicity,negative
O=[N+]([O-])c1ccc(N2CCN(CCC(O)c3ccc(F)cc3)CC2)c(C(F)(F)F)c1 (centres unmarked),"genotoxicity, SOS/umu test",TA1535/pSK1002,"0.016 mg/mL, 4 h, with S9, lower range",,induction factor,0.8
